Measurements gathered from unrelated publications.
Parts stem from different laboratories: compare values within a part only. Changes are numbered by the printed parent chain.

Sample 1
Target: TAR DNA-binding protein 43, full length, His tag (TARDBP, Homo sapiens, UniProt Q13148, residues 1-414)
Technique: RNA Bind-n-Seq
Molecule type: RNA
Medium: in vitro
Concentration: 20 nM
Notes: 6-mer, flanks averaged, single round
Together with: 150 mM KCl
Relative to: input library
Reading: higher = stronger binding
Endpoint: 6-mer enrichment (R)
AGAGCG: 1.6
CGACGG: 1.58
CCUUUC: 0.597
UUAAGA: 0.626
CUCUGG: 0.849
GUUGCA: 0.831
UCUGCG: 0.885
ACGACU: 0.614
CGUGUA: 0.851
GGAGGU: 3.41
CAACAU: 0.61
UCACCU: 0.582
GUUUGU: 0.957
UUUCAG: 0.611
UCUAUG: 0.623
CAUCUC: 0.544

Sample 2
Target: DDIT3, bZIP domain (human)
Technique: DHFR protein complementation
Medium: yeast
Notes: single substitutions, most at no-binding floor
Relative to: wild-type JUN-FOS pair
Reading: higher = stronger binding
Endpoint: binding fitness
Starting sequence: JUN, bZIP domain (human); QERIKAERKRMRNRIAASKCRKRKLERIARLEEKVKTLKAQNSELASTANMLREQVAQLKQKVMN; partner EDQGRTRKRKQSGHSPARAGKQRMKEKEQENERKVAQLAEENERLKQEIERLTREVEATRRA
S47C: 0.0198 natural log
S43A: 0.189 natural log
E54I: -0.0611 natural log
Q41K: -0.056 natural log
S47M: 0.0832 natural log
E44M: 0.054 natural log
L45V: -1.21 natural log
A40P: -1.23 natural log
L31H: -0.895 natural log
L31W: -0.495 natural log
N42K: -0.523 natural log
S47L: 0.0555 natural log
N42Q: -0.0352 natural log
A49G: -1.04 natural log
M51F: -0.0323 natural log
L52M: -0.446 natural log

Sample 3
Target: CCNE2, cyclin fold, Cln2 fusion (human)
Technique: yeast growth competition, sequencing
Medium: yeast
Notes: strong parent motif
Relative to: not given
Reading: higher = stronger binding
Endpoint: normalised enrichment score
Starting sequence: CDKN1B docking peptide (human); PSACRNLFGPVDH; partner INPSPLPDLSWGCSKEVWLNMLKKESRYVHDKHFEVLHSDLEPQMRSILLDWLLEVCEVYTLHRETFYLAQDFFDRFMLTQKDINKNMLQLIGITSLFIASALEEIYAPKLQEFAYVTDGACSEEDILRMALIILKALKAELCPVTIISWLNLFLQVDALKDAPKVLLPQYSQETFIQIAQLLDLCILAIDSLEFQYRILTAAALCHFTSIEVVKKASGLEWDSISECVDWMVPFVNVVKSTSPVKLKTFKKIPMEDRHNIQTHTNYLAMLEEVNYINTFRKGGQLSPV
G9K: 1.98
H13P: 1.51
G9R: -0.126
H13F: 2.02
L7N: -0.155
L7P: 0.13
V11I: 1.76
N6G: 0.421
D12S: 0.876
D12Y: 1.39
P1E: 1.4
R5W: -0.202
P10R: 1.59
P1V: 1.37
G9W: 0.301
N6D: 0.429
V11N: 1.28
H13I: 1.35
F8V: -0.324
G9F: 0.876
P10G: 1.49
C4L: 1.32
S2Y: 0.314
N6Y: 0.317
G9A: 0.964

Sample 4
Target: Prothrombin, mature alpha-thrombin (F2, Homo sapiens, UniProt P00734)
Technique: aptamer microarray, sandwich
Molecule type: DNA with 2'F-ANA
Medium: in vitro
Concentration: 200 nM
Notes: whole 15-mer aptamer, many near background
Together with: Cy3 exosite-II aptamer, 400 nM
Reading: higher = stronger binding
Endpoint: mean fluorescence intensity
Strand: GGTTGGTGTGGTTGG
2'F-ANA at 2 3 8 9 10 11 13 15: 303 a.u.
2'F-ANA at 4 6 8 10 11 12 13 14 15: 82.7 a.u.
2'F-ANA at 1 6 7 8 9 13: 140 a.u.
2'F-ANA at 1 3 5 6 7 10 13 14 15: 45.5 a.u.
2'F-ANA at 4 5 7 8 9 10 12 15: 50.6 a.u.
2'F-ANA at 3 5 6 8 9: 121 a.u.
2'F-ANA at 1 2 3 10 11 14 15: 89.8 a.u.
2'F-ANA at 1 5 8 9 11 12 13 14: 46.6 a.u.
2'F-ANA at 1 4 6 8 10 11 12 13: 83.8 a.u.
2'F-ANA at 3 4 6 8 10 11 12 15: 229 a.u.
2'F-ANA at 1 2 3 5 6 7 9 10 11 12 13 14: 175 a.u.
2'F-ANA at 1 2 3 5 8 10 14 15: 246 a.u.
2'F-ANA at 1 2 3 4 5 8 9 11 12 14 15: 49.8 a.u.
2'F-ANA at 1 3 5 9 10 12 13 14: 49.3 a.u.
2'F-ANA at 7 8 9 10 12 15: 230 a.u.
2'F-ANA at 1 2 3 4 7 11 12 14 15: 259 a.u.
2'F-ANA at 1 4 5 6 7 10 11 13 15: 47.3 a.u.
2'F-ANA at 6 8 9 10 11 13 15: 120 a.u.
2'F-ANA at 2 3 4 6 7 8 11 12 13 14 15: 250 a.u.
2'F-ANA at 1 3 4 5 9 10 11 12 13 14: 51.6 a.u.
2'F-ANA at 1 2 4 5 6 8 11 12: 89.3 a.u.
2'F-ANA at 2 3 8 9 11 13: 649 a.u.
2'F-ANA at 4 5 8 12 13 14 15: 44.6 a.u.
2'F-ANA at 1 2 3 5 6 9 10 11 13 15: 49 a.u.

Sample 5
Target: Sal-like protein 4, full length isoform B (SALL4, Homo sapiens, UniProt Q9UJQ4-2, residues 1-616)
Technique: universal PBM
Molecule type: double-stranded DNA, one strand shown
Medium: in vitro
Concentration: not given
Notes: 8-mer, flanks averaged, mean of replicates
Reading: higher = stronger binding
Endpoint: E-score
Construct (chain): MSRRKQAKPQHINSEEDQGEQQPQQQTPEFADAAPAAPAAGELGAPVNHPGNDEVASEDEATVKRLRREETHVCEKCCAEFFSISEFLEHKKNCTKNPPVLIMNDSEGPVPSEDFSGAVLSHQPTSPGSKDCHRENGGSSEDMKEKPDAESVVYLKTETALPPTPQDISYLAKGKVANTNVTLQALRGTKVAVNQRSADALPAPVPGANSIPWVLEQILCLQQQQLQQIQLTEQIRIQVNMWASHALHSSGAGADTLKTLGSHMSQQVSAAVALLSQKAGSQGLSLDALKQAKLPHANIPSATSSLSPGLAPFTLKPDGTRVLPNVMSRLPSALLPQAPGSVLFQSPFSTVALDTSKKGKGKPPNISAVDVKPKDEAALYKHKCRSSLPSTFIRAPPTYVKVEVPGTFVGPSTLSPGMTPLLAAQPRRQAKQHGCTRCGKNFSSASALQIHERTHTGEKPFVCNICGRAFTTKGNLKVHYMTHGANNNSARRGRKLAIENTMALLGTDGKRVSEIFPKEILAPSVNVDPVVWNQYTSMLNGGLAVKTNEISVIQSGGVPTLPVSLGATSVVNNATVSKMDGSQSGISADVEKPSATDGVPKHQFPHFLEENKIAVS
GAGCTCGC: -0.246
GGCGCTGA: -0.206
AATCGCTC: -0.13
ACCAGTAA: 0.174
GCTTGGTA: -0.0471
CGGTGCTA: -0.149
AGGACGAT: 0.00642
GCTGACCC: -0.172
CCTGCCAG: -0.205
CAAGGGAG: -0.0882
GGTAAAGA: 0.136
CGATGTAC: 0.125
GTATTAAC: 0.0924
ACACGGCG: -0.228
GAGTCTAC: -0.029
ATCCTTCA: 0.134
AGTCCAAA: -0.0951
CATACAAG: 0.134

Other studies, line by line
PhoQ, residues 284 288 289 292 302 303 AQGLTV
fold induction (PhoP, residues 12 14 15 18 19 QQAYL (Escherichia coli, UniProt P23836); Sort-seq, item: YFP reporter; E. coli; PhoQ-PhoP variant library, together with: 10 µM Mg2+; relative to: high Mg2+ state, higher = stronger signaling): 3.07
